{"data": "Published values collected from several papers", "note": "A part holds a random share of what one study measured. “And” joins repeats or separate records; there may be more than shown."}
{"data": "Series 1", "target": "Membrane-associated tyrosine- and threonine-specific cdc2-inhibitory kinase (PKMYT1, Homo sapiens, UniProt Q99640)", "read-out": "binding", "method": "HTRF", "tested at": "333.33 nM", "Construct (Q99640 1-499)": "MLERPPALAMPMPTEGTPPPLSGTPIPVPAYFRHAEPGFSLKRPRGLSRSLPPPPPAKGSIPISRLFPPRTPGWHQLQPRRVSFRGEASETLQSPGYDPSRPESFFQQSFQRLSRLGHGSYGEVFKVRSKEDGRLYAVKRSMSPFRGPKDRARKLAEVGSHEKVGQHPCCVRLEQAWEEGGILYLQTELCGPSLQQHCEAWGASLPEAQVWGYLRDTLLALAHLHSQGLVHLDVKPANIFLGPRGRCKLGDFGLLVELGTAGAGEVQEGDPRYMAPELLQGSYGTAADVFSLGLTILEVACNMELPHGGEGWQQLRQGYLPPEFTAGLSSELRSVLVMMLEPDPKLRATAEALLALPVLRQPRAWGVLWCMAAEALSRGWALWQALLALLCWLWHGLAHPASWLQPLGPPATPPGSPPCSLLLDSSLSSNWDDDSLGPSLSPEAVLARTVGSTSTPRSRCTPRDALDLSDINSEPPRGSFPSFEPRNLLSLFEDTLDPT"}
{"Compound": "Cc1ccc(O)c(C)c1-c1cnc2[nH]c(-c3cnc(N4CCC(CN5CCN(c6ccc(NC7CCC(=O)NC7=O)c(F)c6)CC5)CC4)nc3)cc2c1C#N (racemic)", "inhibition": "101% and 100%"}
{"Compound": "Cc1ccc(O)c(C)c1-c1cnc2[nH]c(-c3cnc(N4CCC(CCN5CCN(c6ccc(N7CCC(=O)NC7=O)cc6F)CC5)CC4)nc3)cc2c1C#N", "inhibition": "99.6% and 99.8%"}
{"Compound": "Cc1ccc(O)c(C)c1-c1cnc2[nH]c(-c3cnc(N4CCC(CN5CCN(c6c(F)cc(NC7CCC(=O)NC7=O)cc6F)CC5)CC4)nc3)cc2c1C#N (racemic)", "inhibition": "95.7% and 94%"}
{"Compound": "Cc1ccc(O)c(C)c1-c1cnc2[nH]c(-c3cnc(N4CCC(CCN5CCN(c6ccc7c(c6)C(=O)N(C6CCC(=O)NC6=O)C7=O)CC5)CC4)nc3)cc2c1C#N (racemic)", "inhibition": "99.3% and 98.9%"}
{"Compound": "Cc1ccc(O)c(C)c1-c1cnc2[nH]c(-c3cnc(N4CCC5(CC4)CC(N4CCN(c6ccc7c(c6)C(=O)N(C6CCC(=O)NC6=O)C7=O)CC4)CO5)nc3)cc2c1C#N (mixture of isomers)", "inhibition": "99.2% and 99.7%"}
{"data": "Series 2", "Structure (SMILES)": "C[C@@H]1CN(c2ccc(-c3cc(C(=O)NCCOCCOCCOCCOCCOCCOCCNC(=O)/C=C/c4[nH]cc(C(=O)N[C@@H](CC(N)=O)c5ccc(F)c(Cl)c5)c4-c4ccc(Cl)cc4F)ccc3F)cc2NC(=O)c2ccc(F)cc2C(F)(F)F)C[C@H](C)N1C", "read-out": "thermal unfolding", "method": "differential scanning fluorimetry", "tested at": "5.5 µM", "reading": "higher = more unfolded", "WDR5": "WD repeat-containing protein 5 (WDR5, Homo sapiens, UniProt P61964)", "DCAF1": "DDB1- and CUL4-associated factor 1 (DCAF1, Homo sapiens, UniProt Q9Y4B6)", "sequence of UniProt Q9Y4B6 (whole entry, looked up)": "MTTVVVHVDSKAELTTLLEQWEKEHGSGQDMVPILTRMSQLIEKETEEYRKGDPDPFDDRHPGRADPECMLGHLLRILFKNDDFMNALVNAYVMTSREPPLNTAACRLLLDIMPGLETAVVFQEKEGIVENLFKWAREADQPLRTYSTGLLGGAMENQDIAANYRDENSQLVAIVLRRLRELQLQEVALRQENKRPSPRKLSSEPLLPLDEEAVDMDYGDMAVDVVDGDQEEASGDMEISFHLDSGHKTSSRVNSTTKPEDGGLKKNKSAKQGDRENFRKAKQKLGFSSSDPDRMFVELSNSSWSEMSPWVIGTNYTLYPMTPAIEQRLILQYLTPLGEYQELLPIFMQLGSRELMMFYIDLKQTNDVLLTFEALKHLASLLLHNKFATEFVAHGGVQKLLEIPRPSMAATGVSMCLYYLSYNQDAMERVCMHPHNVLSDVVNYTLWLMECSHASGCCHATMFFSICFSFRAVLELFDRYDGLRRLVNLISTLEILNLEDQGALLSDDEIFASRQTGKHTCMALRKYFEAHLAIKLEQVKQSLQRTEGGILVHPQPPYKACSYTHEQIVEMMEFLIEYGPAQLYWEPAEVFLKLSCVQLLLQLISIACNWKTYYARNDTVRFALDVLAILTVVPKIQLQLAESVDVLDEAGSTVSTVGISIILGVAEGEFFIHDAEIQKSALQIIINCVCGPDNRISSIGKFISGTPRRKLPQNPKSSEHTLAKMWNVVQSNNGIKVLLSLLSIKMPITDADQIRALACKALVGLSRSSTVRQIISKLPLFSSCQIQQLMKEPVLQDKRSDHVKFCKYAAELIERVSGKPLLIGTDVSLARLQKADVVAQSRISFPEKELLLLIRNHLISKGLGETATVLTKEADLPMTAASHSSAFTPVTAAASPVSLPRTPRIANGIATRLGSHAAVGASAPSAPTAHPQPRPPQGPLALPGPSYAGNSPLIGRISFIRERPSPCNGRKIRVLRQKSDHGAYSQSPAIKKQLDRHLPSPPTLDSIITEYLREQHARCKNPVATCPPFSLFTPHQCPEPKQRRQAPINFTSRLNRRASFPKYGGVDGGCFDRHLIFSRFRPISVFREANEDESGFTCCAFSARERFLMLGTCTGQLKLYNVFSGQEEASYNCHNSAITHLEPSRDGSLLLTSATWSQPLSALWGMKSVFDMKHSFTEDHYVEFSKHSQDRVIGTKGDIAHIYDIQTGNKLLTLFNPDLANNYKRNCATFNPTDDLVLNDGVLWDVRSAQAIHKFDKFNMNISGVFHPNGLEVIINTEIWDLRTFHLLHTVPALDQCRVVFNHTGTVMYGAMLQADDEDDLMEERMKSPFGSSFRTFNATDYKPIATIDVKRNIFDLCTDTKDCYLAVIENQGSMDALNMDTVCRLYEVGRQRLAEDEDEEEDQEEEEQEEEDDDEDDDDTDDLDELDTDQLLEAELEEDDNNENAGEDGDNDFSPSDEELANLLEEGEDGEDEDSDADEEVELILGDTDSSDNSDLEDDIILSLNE"}
{"target": "WDR5", "setting": "65.01 °C", "SYPRO Orange fluorescence [a.u.]": 16300}
{"target": "DCAF1", "setting": "55.41 °C", "SYPRO Orange fluorescence [a.u.]": 28300}
{"target": "DCAF1", "setting": "85.41 °C", "SYPRO Orange fluorescence [a.u.]": 35500}
{"target": "WDR5", "setting": "84.01 °C", "SYPRO Orange fluorescence [a.u.]": 63600}
{"target": "DCAF1", "setting": "42.6 °C", "SYPRO Orange fluorescence [a.u.]": 13200}
{"target": "WDR5", "setting": "43.2 °C", "SYPRO Orange fluorescence [a.u.]": 14600}
{"target": "DCAF1", "setting": "85.81 °C", "SYPRO Orange fluorescence [a.u.]": 35100}
{"target": "WDR5", "setting": "91.61 °C", "SYPRO Orange fluorescence [a.u.]": 52400}
{"target": "DCAF1", "setting": "27.8 °C", "SYPRO Orange fluorescence [a.u.]": 7910}
{"target": "WDR5", "setting": "34.8 °C", "SYPRO Orange fluorescence [a.u.]": 13900}
{"target": "DCAF1", "setting": "37 °C", "SYPRO Orange fluorescence [a.u.]": 10700}
{"data": "Series 3", "SMILES": "O=C(O)C1(O)Oc2cc(Cl)ccc2N(Cc2ccccc2)C1=O (centres unmarked)"}
{"organism": "Arabidopsis thaliana", "assay": "root length", "system": "Col-0", "setting": "6.25 µg/mL, 7 days, seed germination, dark", "inhibition": "6.4%"}
{"organism": "Arabidopsis thaliana", "assay": "hypocotyl length", "system": "Col-0, seedlings", "setting": "6.25 µg/mL", "inhibition": "1.63%"}
{"organism": "Arabidopsis thaliana", "assay": "root length", "system": "Col-0, seedlings", "setting": "12.5 µg/mL", "how to read": "relative to: water control", "inhibition": "7.73%"}
{"organism": "Arabidopsis thaliana", "assay": "root length", "system": "Col-0", "setting": "25.0 µg/mL, 7 days, seed germination, dark", "inhibition": "17.2%"}
{"organism": "Arabidopsis thaliana", "assay": "hypocotyl length", "system": "Col-0, seedlings", "setting": "25 µg/mL", "inhibition": "21.1%"}
{"organism": "Arabidopsis thaliana", "assay": "root length", "system": "Col-0, seedlings", "setting": "3.125 µg/mL", "how to read": "relative to: water control", "inhibition": "6.05%"}
{"organism": "Arabidopsis thaliana", "assay": "hypocotyl length", "system": "Col-0, seedlings", "setting": "3.125 µg/mL", "inhibition": "-0.143%"}
{"organism": "Zea mays", "assay": "fresh weight", "setting": "soil surface spray, 150 g ai/ha, 21 days, pre-emergence crop safety", "inhibition": "4.1% and 3.8% and 3.2%"}
{"organism": "Alopecurus aequalis", "assay": "fresh weight", "setting": "150 g ai/ha, pre-emergence treatment", "inhibition": "76.4% and 70.8% and 74.5%"}
{"organism": "Arabidopsis thaliana", "assay": "hypocotyl length", "system": "Col-0", "setting": "50.0 µg/mL, 7 days, seed germination, dark", "inhibition": "36.7%"}
{"organism": "Echinochloa crus-galli", "assay": "fresh weight", "setting": "150 g ai/ha, post-emergence treatment", "inhibition": "45.4% and 46.9% and 45.6%"}
{"organism": "Eclipta prostrata", "assay": "fresh weight", "setting": "150 g ai/ha, post-emergence treatment", "inhibition": "65.3% and 61.4% and 61%"}
{"organism": "Arabidopsis thaliana", "assay": "root length", "system": "Col-0", "setting": "50.0 µg/mL, 7 days, seed germination, dark", "inhibition": "52.4%"}
{"organism": "Arabidopsis thaliana", "assay": "hypocotyl length", "system": "Col-0, seedlings", "setting": "50 µg/mL", "inhibition": "36.7%"}
{"organism": "Oryza sativa", "assay": "fresh weight", "setting": "soil surface spray, 150 g ai/ha, 21 days, pre-emergence crop safety", "inhibition": "1.4% and 1%"}
{"organism": "Arabidopsis thaliana", "assay": "root length", "system": "Col-0, seedlings", "setting": "12.5 µg/mL", "inhibition": "7.73%"}
{"organism": "Triticum aestivum", "assay": "fresh weight", "setting": "soil surface spray, 150 g ai/ha, 21 days, pre-emergence crop safety", "inhibition": "13.1% and 12.8%"}
{"organism": "Arabidopsis thaliana", "assay": "root length", "system": "Col-0, seedlings", "setting": "6.25 µg/mL", "inhibition": "6.36%"}
{"data": "Series 4", "target": "E3 ubiquitin-protein ligase NEDD4, HECT domain (Homo sapiens, UniProt P46934)", "read-out": "enzyme activity", "action": "inhibitor", "method": "Ub-TR-FRET", "medium": "HECT domain", "tested at": "33.33 µM", "reading": "higher = more chain formation", "Residues (P46934 938-1319, limits assumed)": "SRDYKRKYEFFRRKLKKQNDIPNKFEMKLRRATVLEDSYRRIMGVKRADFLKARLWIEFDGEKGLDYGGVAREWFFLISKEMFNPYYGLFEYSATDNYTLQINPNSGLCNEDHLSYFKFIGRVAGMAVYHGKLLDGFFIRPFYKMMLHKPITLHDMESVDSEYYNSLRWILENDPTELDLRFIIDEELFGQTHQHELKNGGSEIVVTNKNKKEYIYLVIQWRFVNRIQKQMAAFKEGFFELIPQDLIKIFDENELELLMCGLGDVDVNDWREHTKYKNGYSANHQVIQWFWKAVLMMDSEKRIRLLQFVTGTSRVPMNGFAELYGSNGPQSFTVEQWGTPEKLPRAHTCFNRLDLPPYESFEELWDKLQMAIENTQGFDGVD"}
{"Structure (SMILES)": "CCONC(=O)/C=C/CNCCCCN1c2ccccc2CCc2ccc(Cl)cc21.O=C(O)/C=C\\C(=O)O", "ubiquitin chain formation AUC": "4920 a.u. and 5310 a.u. and 5220 a.u. and 5210 a.u. and 4850 a.u. and 5200 a.u."}
{"Structure (SMILES)": "CN(C)C(=O)/C=C/CNCCCN1c2ccccc2CCc2ccc(Cl)cc21.Cl", "ubiquitin chain formation AUC": "113000 a.u. and 114000 a.u."}
{"Structure (SMILES)": "CNC(=O)/C=C/CNCCCN1c2ccccc2CCc2ccc(Cl)cc21.Cl", "ubiquitin chain formation AUC": "83700 a.u. and 83900 a.u. and 84200 a.u."}
{"Structure (SMILES)": "CCOC(=O)/C=C/CN(CC)CCCCN1c2ccccc2CCc2ccc(Cl)cc21.O=C(O)/C=C\\C(=O)O", "ubiquitin chain formation AUC": "13000 a.u. and 13400 a.u. and 11700 a.u. and 12400 a.u. and 14000 a.u. and 13200 a.u."}
{"Structure (SMILES)": "CNCCCN1c2ccccc2CCc2ccc(Cl)cc21", "ubiquitin chain formation AUC": "123000 a.u. and 121000 a.u. and 128000 a.u."}
{"Structure (SMILES)": "CCOC(=O)/C=C/CNCCCCN1c2cc(Cl)ccc2COc2ccccc21.O=C(O)/C=C\\C(=O)O", "ubiquitin chain formation AUC": "11900 a.u."}
{"Structure (SMILES)": "N#C/C=C/CNCCCCN1c2ccccc2CCc2ccc(Cl)cc21.O=C(O)/C=C\\C(=O)O", "ubiquitin chain formation AUC": "9260 a.u. and 9990 a.u. and 9480 a.u. and 10800 a.u. and 10400 a.u."}
{"Structure (SMILES)": "C=CC(=O)NCCCN1c2ccccc2CCc2ccc(Cl)cc21", "ubiquitin chain formation AUC": "183000 a.u. and 184000 a.u."}
{"Structure (SMILES)": "COC(=O)/C=C/C(=O)NCCCN1c2ccccc2CCc2ccc(Cl)cc21", "ubiquitin chain formation AUC": "151000 a.u. and 150000 a.u. and 148000 a.u."}
{"Structure (SMILES)": "CCOC(=O)/C=C/CNCCCCN1c2ccccc2C(=O)N(C)c2ccc(Cl)cc21.O=C(O)/C=C\\C(=O)O", "ubiquitin chain formation AUC": "13300 a.u. and 14000 a.u. and 14300 a.u."}
{"note": "Repeated from above (series 3):"}
{"organism": "Arabidopsis thaliana", "assay": "hypocotyl length", "system": "Col-0, seedlings", "setting": "6.25 µg/mL", "inhibition": "1.63%"}
{"organism": "Arabidopsis thaliana", "assay": "root length", "system": "Col-0, seedlings", "setting": "12.5 µg/mL", "how to read": "relative to: water control", "inhibition": "7.73%"}
{"organism": "Arabidopsis thaliana", "assay": "root length", "system": "Col-0", "setting": "25.0 µg/mL, 7 days, seed germination, dark", "inhibition": "17.2%"}
{"organism": "Arabidopsis thaliana", "assay": "hypocotyl length", "system": "Col-0, seedlings", "setting": "25 µg/mL", "inhibition": "21.1%"}
{"organism": "Arabidopsis thaliana", "assay": "root length", "system": "Col-0, seedlings", "setting": "3.125 µg/mL", "how to read": "relative to: water control", "inhibition": "6.05%"}
{"organism": "Arabidopsis thaliana", "assay": "hypocotyl length", "system": "Col-0, seedlings", "setting": "3.125 µg/mL", "inhibition": "-0.143%"}
{"organism": "Zea mays", "assay": "fresh weight", "setting": "soil surface spray, 150 g ai/ha, 21 days, pre-emergence crop safety", "inhibition": "4.1% and 3.8% and 3.2%"}
